Assay results of several laboratories.
Each line is one published result; not all experiments were run side by side. “And” joins repeats or separate records; there may be more than shown.
HDAC8: Histone deacetylase 8 (HDAC8, Homo sapiens, UniProt Q9BY41)
Sequence of UniProt Q9BY41 (whole entry, looked up): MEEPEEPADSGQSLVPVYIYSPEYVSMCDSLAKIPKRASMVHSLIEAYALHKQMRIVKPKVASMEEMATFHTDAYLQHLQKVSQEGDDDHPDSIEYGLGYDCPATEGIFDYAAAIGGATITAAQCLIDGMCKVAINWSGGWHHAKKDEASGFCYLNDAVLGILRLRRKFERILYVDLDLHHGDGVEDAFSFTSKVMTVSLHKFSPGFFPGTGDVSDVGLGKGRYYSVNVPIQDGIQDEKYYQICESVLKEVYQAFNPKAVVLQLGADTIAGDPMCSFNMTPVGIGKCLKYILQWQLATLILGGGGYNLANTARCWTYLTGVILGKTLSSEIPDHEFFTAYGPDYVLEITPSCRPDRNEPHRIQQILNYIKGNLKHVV
ADRA2C: Alpha-2C adrenergic receptor (ADRA2C, Homo sapiens, UniProt P18825)
Sequence of UniProt Q5BJF2 (whole entry, looked up): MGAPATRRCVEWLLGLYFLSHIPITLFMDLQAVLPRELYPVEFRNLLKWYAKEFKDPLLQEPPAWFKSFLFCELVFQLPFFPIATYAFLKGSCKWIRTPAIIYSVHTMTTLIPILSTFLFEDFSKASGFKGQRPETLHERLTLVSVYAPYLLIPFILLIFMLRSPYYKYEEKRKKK
Sequence of UniProt P18825 (whole entry, looked up): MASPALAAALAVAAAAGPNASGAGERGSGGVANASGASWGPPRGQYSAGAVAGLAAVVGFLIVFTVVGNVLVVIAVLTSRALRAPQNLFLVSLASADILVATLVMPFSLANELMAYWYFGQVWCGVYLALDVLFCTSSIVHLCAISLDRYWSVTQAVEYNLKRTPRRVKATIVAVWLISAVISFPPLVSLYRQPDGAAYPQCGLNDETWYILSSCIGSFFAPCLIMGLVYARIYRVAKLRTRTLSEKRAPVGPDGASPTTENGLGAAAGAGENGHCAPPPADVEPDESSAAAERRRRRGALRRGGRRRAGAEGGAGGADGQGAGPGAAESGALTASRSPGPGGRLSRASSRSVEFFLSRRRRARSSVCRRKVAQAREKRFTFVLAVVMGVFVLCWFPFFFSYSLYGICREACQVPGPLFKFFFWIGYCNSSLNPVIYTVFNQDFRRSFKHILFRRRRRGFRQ
Sequence of UniProt Q9HC98 (whole entry, looked up): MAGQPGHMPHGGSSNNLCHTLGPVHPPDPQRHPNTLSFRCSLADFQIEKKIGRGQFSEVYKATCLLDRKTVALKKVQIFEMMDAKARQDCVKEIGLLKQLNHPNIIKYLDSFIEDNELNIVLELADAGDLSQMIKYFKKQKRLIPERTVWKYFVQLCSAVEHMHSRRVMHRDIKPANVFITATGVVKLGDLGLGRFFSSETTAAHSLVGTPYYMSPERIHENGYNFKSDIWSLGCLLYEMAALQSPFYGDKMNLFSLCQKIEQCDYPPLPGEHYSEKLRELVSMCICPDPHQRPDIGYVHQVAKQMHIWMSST
Sequence of UniProt Q9NYY3 (whole entry, looked up): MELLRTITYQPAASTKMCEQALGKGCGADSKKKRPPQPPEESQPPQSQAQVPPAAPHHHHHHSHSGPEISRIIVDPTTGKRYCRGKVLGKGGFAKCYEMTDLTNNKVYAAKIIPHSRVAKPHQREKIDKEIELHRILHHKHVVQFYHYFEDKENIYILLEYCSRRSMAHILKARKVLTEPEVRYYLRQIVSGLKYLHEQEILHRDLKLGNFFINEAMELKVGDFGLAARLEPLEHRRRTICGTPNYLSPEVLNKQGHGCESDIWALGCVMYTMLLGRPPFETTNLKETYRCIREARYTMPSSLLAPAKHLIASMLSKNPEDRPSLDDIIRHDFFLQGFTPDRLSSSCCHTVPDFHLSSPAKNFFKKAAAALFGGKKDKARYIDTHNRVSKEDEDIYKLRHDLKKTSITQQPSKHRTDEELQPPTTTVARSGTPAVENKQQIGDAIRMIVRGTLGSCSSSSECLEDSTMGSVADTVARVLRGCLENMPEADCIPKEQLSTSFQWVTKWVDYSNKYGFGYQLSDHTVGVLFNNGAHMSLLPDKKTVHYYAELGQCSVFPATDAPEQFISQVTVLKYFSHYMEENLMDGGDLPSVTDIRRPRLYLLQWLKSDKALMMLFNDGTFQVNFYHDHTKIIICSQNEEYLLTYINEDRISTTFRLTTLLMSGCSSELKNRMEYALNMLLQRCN
Sequence of UniProt Q9HBY8 (whole entry, looked up): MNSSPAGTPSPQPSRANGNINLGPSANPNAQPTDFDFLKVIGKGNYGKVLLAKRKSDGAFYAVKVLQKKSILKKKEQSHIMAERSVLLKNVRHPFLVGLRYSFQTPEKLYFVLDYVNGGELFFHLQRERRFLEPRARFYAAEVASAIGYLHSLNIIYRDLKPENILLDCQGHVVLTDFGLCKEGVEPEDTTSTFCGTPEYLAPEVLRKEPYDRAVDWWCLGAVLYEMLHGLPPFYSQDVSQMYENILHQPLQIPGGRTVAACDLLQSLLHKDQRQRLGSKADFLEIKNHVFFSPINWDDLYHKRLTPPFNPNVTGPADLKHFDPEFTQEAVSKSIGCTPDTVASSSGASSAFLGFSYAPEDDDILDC
Sequence of UniProt P18089 (whole entry, looked up): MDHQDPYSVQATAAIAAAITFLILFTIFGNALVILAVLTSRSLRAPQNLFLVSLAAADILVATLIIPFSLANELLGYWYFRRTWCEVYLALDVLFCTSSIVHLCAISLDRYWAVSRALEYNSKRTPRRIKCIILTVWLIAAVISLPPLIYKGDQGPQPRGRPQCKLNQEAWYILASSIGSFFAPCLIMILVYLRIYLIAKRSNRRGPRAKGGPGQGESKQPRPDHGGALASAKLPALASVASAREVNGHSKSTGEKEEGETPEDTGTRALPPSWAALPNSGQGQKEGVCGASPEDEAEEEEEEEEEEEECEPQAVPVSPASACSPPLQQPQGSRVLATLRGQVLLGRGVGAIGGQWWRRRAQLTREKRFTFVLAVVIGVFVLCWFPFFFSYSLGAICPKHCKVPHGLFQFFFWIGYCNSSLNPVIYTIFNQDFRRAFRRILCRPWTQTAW
Sequence of UniProt P51178 (whole entry, looked up): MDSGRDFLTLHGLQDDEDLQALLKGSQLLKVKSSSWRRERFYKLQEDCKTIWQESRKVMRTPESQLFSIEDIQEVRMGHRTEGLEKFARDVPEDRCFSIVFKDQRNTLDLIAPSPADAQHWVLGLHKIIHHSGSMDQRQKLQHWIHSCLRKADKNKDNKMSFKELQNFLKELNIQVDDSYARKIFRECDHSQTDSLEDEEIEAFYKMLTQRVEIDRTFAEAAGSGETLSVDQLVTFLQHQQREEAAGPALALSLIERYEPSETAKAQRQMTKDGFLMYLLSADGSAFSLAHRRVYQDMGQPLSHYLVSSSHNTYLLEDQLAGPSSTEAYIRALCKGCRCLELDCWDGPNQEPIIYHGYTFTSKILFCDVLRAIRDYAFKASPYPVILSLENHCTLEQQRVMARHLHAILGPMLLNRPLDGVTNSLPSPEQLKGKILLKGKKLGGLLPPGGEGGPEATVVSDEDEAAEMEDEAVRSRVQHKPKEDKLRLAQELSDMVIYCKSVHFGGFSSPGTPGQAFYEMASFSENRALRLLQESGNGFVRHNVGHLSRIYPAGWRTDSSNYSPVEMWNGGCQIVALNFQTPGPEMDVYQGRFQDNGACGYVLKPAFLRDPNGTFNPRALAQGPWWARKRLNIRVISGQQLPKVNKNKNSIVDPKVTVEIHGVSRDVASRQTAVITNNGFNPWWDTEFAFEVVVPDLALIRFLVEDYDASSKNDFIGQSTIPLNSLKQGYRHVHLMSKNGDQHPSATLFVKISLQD
Sequence of UniProt P35348 (whole entry, unmodified, looked up): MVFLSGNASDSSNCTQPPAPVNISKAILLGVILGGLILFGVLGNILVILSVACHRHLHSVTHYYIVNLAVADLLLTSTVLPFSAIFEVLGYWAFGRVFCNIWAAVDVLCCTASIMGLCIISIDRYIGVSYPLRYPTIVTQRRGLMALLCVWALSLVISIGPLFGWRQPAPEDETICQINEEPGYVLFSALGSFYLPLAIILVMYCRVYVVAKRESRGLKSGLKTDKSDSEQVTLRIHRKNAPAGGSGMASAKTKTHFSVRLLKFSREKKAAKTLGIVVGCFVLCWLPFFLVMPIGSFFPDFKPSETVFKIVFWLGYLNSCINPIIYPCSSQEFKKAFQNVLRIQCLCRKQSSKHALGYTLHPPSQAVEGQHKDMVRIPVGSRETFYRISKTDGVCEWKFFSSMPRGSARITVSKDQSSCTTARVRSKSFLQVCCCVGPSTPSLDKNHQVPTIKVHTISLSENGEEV
Sequence of UniProt P31749 (whole entry, looked up): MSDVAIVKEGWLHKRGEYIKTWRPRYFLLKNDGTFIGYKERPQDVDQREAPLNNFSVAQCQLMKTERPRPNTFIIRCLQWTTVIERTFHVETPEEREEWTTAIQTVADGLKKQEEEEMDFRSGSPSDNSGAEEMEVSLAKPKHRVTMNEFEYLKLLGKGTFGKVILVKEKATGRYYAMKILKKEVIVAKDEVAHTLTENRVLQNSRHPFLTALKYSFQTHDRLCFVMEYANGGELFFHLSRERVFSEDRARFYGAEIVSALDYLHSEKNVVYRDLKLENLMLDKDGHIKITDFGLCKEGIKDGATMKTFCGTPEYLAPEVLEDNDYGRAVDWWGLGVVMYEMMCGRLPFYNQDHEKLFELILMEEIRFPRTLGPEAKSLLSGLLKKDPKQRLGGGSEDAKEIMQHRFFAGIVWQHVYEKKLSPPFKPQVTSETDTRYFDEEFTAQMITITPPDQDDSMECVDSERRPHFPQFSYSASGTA

| SMILES | target | assay | setting | measurement | value |
| --- | --- | --- | --- | --- | --- |
| CNc1ncc2c(/C=C/C(=O)N3CCC(OC)CC3)nn(Cc3cccc(C(F)(F)F)c3)c2n1 | PLK2 (Homo sapiens, UniProt Q9NYY3) | enzyme activity, inhibitor, radiometric | 1 µM | remaining activity | 101% |
| Cc1ccc2[nH]c(=O)c(CNC3CCCCC3)cc2c1 | ADRA1A (Homo sapiens, UniProt P35348, M292L) | ligand displacement in cells, flow cytometry | – | Ki | 2.29 µM |
| CCCCC(=O)Nc1ccc(-c2ccc3ncn(CCC)c(=O)c3c2)cn1 | NEK6 (Homo sapiens, UniProt Q9HC98) | binding, competition with immobilised ligand | 0.5 µM | remaining binding | 69% |
| Cc1cc(C(C)(C)C)ccc1OS(=O)(=O)Oc1cc(F)cc(C(=O)NO)c1 | HDAC8 | enzyme activity, inhibitor, fluorescence | – | Ki | 6.75 µM |
| Cc1cc(Oc2ncccc2CN2CCN(c3ccccc3Cl)CC2)ccc1-c1c(C)c(=O)[nH]c(=O)n1C | ADRA2C | ligand displacement, radioligand | – | Ki | ~0.011 µM and 0.011 µM |
| COc1cc(-c2cncc3c2CN(C)Cc2cc(N4CCNCC4)ccc2-3)cc(OC)c1OC | EIF2AK4 (Homo sapiens, UniProt Q9P2K8) | enzyme activity, inhibitor | 1 µM | remaining activity | 104% |
| O=C(/C=C/c1cccc(OS(=O)(=O)Oc2ccccc2)c1)NO | HDAC1 (Homo sapiens, UniProt Q13547) | enzyme activity, inhibitor, fluorescence | – | Ki | 0.153 µM |
| Cc1cc([C@@H](C)Nc2ccccc2C(=O)O)c2nc(N3CCC(F)(F)CC3)c(C#N)c(=O)n2c1 | PIM3 (Homo sapiens, UniProt Q86V86) | binding, competition with immobilised ligand | 10 µM | remaining binding | 100% |
| Cc1cc(Oc2ncccc2CN2CCN(c3ccc(F)c(F)c3)CC2)ccc1-c1c(C)c(=O)[nH]c(=O)n1C | ADRA2C | ligand displacement, radioligand | – | Ki | 0.0896 µM |
| CCOc1ccc(C(=O)CC(SCc2ccccc2Br)C(=O)O)cc1 (stereo not drawn) | AKT1 (Homo sapiens, UniProt P31749) | ligand displacement, FP | – | Ki | 103 µM |
| C=CC(=O)N1CCC(COCC(=O)N2CCN(c3nc(-c4cnc(N)nc4C(F)F)nc(N4CCOC[C@@H]4C)n3)CC2)CC1 | SGK2 (Homo sapiens, UniProt Q9HBY8) | binding, competition with immobilised ligand | 1 µM | remaining binding | 100% |
| O=C(NO)c1cncc(OS(=O)(=O)Oc2ccc(C(F)(F)F)cc2)c1 | HDAC8 | enzyme activity, inhibitor, fluorescence | – | Ki | 0.788 µM |
| CCOc1ccccc1C(=O)CC(SCc1ccc(Cl)cc1)C(=O)O (stereo not drawn) | PLCD1 (Homo sapiens, UniProt P51178) | ligand displacement, FP | – | Ki | > 1000 µM |
| Cc1cc(Oc2ncccc2CN2CCN(c3cccc(F)c3)CC2)ccc1-c1c(C)c(=O)[nH]c(=O)n1C | ADRA2B (Homo sapiens, UniProt P18089) | ligand displacement, radioligand | – | Ki | 0.0607 µM |
| C#CCN(CCCN1CCN(C2CCCCC2)CC1)Cc1ccc(C(=O)c2ccc([N+](=O)[O-])cc2)cc1 | TMEM97 (Homo sapiens, UniProt Q5BJF2) | ligand displacement, radioligand | cell membranes | Ki | 0.0038 µM and 0.00378 µM and < 0.005 µM |

Excerpt of the above:
| SMILES | target | assay | setting | measurement | value |
| --- | --- | --- | --- | --- | --- |
| Cc1ccc2[nH]c(=O)c(CNC3CCCCC3)cc2c1 | ADRA1A (Homo sapiens, UniProt P35348, M292L) | ligand displacement in cells, flow cytometry | – | Ki | 2.29 µM |
